# Assay results collected from several papers.
# ± gives the spread as reported.
# UniProt P10632, sequence (whole entry, looked up): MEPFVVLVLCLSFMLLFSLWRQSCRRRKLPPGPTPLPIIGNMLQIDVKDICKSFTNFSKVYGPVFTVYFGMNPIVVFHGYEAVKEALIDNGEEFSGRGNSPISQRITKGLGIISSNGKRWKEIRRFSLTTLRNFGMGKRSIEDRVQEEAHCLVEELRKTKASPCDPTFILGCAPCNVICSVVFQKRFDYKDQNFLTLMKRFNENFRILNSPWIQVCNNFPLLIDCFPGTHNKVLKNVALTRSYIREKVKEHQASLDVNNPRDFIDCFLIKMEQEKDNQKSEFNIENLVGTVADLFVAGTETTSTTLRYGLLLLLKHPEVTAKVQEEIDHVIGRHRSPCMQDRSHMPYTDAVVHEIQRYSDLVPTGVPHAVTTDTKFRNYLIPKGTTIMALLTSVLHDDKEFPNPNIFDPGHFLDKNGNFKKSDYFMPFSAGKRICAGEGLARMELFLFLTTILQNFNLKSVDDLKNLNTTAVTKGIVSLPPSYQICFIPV
SMILES,target or system,assay,system,setting,scale,measurement,value
CN(C)CCCN1c2ccccc2Sc2ccccc21,African green monkey cells,,,5 days,,CC50,25.7 µM
COc1cccc(-c2n[nH]c(SCc3ccccn3)n2)c1OC,Salmonella typhimurium,"Ames test, plate incorporation",TA1537,"0.13 mg/plate, with rat liver S9",,revertant colonies per plate,15
CC[C@@H]([C@H](C)O)n1ncn(-c2ccc(N3CCN(c4ccc(OC[C@@H]5CO[C@@](Cn6cncn6)(c6ccc(F)cc6F)C5)cc4)CC3)cc2)c1=O,African green monkey cells,,,5 days,,CC50,> 100 µM
COC(=O)[C@@H]1[C@H]2CC[C@@H](C[C@@H]1O)N2C,,,rat whole blood,"500 nM, 4 months, -80 °C",,stability bias,3.8%
CCOC(=O)Nc1ccc(NCc2ccc(F)cc2)nc1N,African green monkey cells,,,5 days,,CC50,> 100 µM
COC(=O)[C@H]1[C@@H](OC(=O)c2ccccc2)C[C@@H]2CC[C@H]1N2,,,"rat, whole blood","1000 nM, 4 freeze-thaw cycles",,stability bias,9.62%
CO[C@H]1C[C@@H]2CC[C@@H](C)[C@@](O)(O2)C(=O)C(=O)N2CCCC[C@H]2C(=O)O[C@H]([C@H](C)C[C@@H]2CC[C@@H](OC(=O)NCCOCCOCCOCCOCCOCCOCCOCCOCCC(=O)N3CCc4cc(Cn5nc(-c6ccc7oc(N)nc7c6)c6c(N)ncnc65)ccc4C3)[C@H](OC)C2)C[C@@H](O)[C@H](C)/C=C(\C)[C@@H](O)[C@@H](OC)C(=O)[C@H](C)C[C@H](C)/C=C/C=C/C=C/1C,,,patients with advanced solid tumours,"intravenous, 16 mg weekly, grade 3 or higher",,mucositis incidence,25%
Cc1cc(C(=O)NC(C)(C)COc2cccc3c2C(N)=NS(=O)(=O)N3)cc(C)n1,Salmonella typhimurium,"Ames test, initial",TA98,500 µg/plate,baseline: solvent control,revertant ratio,1.3
CC1CCNc2c(C(=O)NC/C=C/S(C)(=O)=O)cccc21 (centres unmarked),,,"male C57BL/6 mice, plasma","intravenous, 2.5 mg/kg, 24 h",,clearance,532 ± 93.8 mL/min/kg
O=c1ccc2ccccc2o1,HepaRG 3D spheroids,steatosis,,"concentration not given, 168 h, high-content imaging",,response probability,31.8%
CCCCCCC(C)(C)c1cc(O)c2c(c1)OC(C)(C)[C@@H]1CC=C(C(=O)O)C[C@@H]21,African green monkey cells,,,5 days,,CC50,21.4 µM
CN1[C@H]2CC[C@@H]1[C@@H](C(=O)O)[C@@H](OC(=O)c1ccccc1)C2,,,"rat, whole blood","10 nM, 4 freeze-thaw cycles",,stability bias,-9.67%
COc1cc2c(Oc3ccc4[nH]c(C)cc4c3F)ccnc2cc1OCC1(N)CC1,,,paediatric recurrent refractory sarcoma,8 mg,,grade 3 blurred vision,0%
CC(=O)O[C@H]1C=C[C@H]2[C@H]3Cc4ccc(O)c5c4[C@@]2(CCN3C)[C@H]1O5,,,rat whole blood,"500 nM, 4 h, room temperature",,stability bias,14.1%
O=C1c2c(O)c(=O)ccn2N([C@@H]2c3ccccc3SCc3c2ccc(F)c3F)[C@@H]2COCCN12,,,"BALB/c mice, plasma","oral, 5 mg/kg baloxavir marboxil, 12 h",,plasma concentration,3 ng/mL
[Cl-].[Cl-].[Pt+2].[Ru+2].c1ccc(-c2nc3cc4ccccc4cc3nc2-c2ccccn2)nc1.c1cnc2c(c1)ccc1cccnc12.c1cnc2c(c1)ccc1cccnc12,Danio rerio,,embryos,"30 µM, 48 h",,hatching rate,36.7 ± 5.8%
CN1CCCN(C(c2ccccc2)c2ccc(Cl)cc2)CC1 (centres unmarked),African green monkey cells,,,5 days,,CC50,21.1 µM
Cc1ncc2n1-c1ccc(Cl)cc1C(c1ccccc1F)=NC2,,,"healthy volunteers, plasma","oral, 5 mg, day 11, added: momelotinib, once daily 200 mg, days 4-11",,AUC(0-last),80.6 ng·h/mL
Cc1cc(C)c(CNC(=O)c2cc(Cl)c3c(c2C)O[C@@](C)([C@H]2CC[C@H](N(C)C)CC2)O3)c(=O)[nH]1,,,"human, relapsed/refractory NHL","concentration not given, treatment-related TEAEs, grade 5",,Pruritus incidence,0%
CN1CC[C@]23c4c5ccc(O)c4O[C@H]2[C@@H](O[C@@H]2O[C@H](C(=O)O)[C@@H](O)[C@H](O)[C@H]2O)C=C[C@H]3[C@H]1C5,,,"rat, whole blood","1000 nM, 4 h, room temperature, bench-top storage",,stability bias,2.18%
O=c1[nH]c2ccccc2n1CCCN1CCN(C(c2ccccc2)c2ccccc2)CC1,African green monkey cells,,,5 days,,CC50,12.6 µM
Cc1ncc2n1-c1ccc(Cl)cc1C(c1ccccc1F)=NC2,,,"wild-type mice, plasma","intravenous, 0.3 mg/kg, added: 14-day CMC",,clearance,105 ± 24 mL/min
O=S(=O)(c1ccc(O)cc1)c1ccc(O)cc1,"HepG2 spheroids, dissociated",annexin V-FITC/PI flow cytometry,,"0.10 µM, 96 h",,viable cells,36.8 ± 14%
CN1CC[C@@H](c2c(O)cc(O)c3c(=O)cc(-c4ccc(C(F)(F)F)cc4Cl)oc23)[C@@H]1CO,,measured: rectal abscess,AML,"oral, 200 mg, grade 3 to 4, intermittent dosing",,patients with adverse event,10%
COC(=O)[C@H]1[C@@H](OC(=O)c2ccccc2)C[C@@H]2CC[C@H]1N2C,,,"rat, whole blood","1000 nM, 4 months, -80 °C, long-term storage",,stability bias,3.7%
O=[N+]([O-])c1ccc(N2CCN(CCC(O)c3ccc(F)cc3)CC2)c(C(F)(F)F)c1 (centres unmarked),Salmonella typhimurium,"genotoxicity, SOS/umu test",TA1535/pSK1002,"0.125 mg/mL, 4 h, without S9, full range",,induction factor,0.7
O=C(NCc1cccnc1)Nc1ccc([N+](=O)[O-])cc1,mouse DRG neurons,neurite degeneration,,"50 µM, 8 h",baseline: vehicle,degeneration index difference,34.2
CN1CC[C@]23c4c5ccc(O[C@@H]6O[C@H](C(=O)O)[C@@H](O)[C@H](O)[C@H]6O)c4O[C@H]2[C@@H](O)C=C[C@H]3[C@H]1C5,,,"rat, whole blood","10 nM, 4 months, -80 °C, long-term storage",,stability bias,19.3%
OCCN1CCN(CCC=C2c3ccccc3Sc3ccc(C(F)(F)F)cc32)CC1,African green monkey cells,,,5 days,,CC50,7.67 µM
CC(C)CC(=O)OC[C@H]1O[C@@](C#N)(c2ccc3c(N)ncnn23)[C@H](O)[C@@H]1O,"Cytochrome P450 2C8 (CYP2C8, Homo sapiens, UniProt P10632)",metabolic stability,recombinant enzyme,1 µM,,half-life,3.11 ± 0.0909 min
C[C@H]1[C@H]2CC[C@H]3[C@@H]4CC=C5C[C@@H](N(C)C)CC[C@]5(C)[C@H]4CC[C@]23CN1C,African green monkey cells,,,5 days,,CC50,34.7 µM
C[C@]1(CO)Cc2ncn(-c3ccc(C#N)c(Cl)c3)c2C(=O)O1,,,"human, Chinese",60 mg single dose,,subjects with drug-related orthostatic hypotension,0%

# A few entries again:
SMILES,target or system,assay,system,setting,scale,measurement,value
CN1CCCN(C(c2ccccc2)c2ccc(Cl)cc2)CC1 (centres unmarked),African green monkey cells,,,5 days,,CC50,21.1 µM
CN1CC[C@]23c4c5ccc(O)c4O[C@H]2[C@@H](O[C@@H]2O[C@H](C(=O)O)[C@@H](O)[C@H](O)[C@H]2O)C=C[C@H]3[C@H]1C5,,,"rat, whole blood","1000 nM, 4 h, room temperature, bench-top storage",,stability bias,2.18%
O=C1c2c(O)c(=O)ccn2N([C@@H]2c3ccccc3SCc3c2ccc(F)c3F)[C@@H]2COCCN12,,,"BALB/c mice, plasma","oral, 5 mg/kg baloxavir marboxil, 12 h",,plasma concentration,3 ng/mL
